Published values gathered from unrelated publications.
Parts stem from different laboratories: compare values within a part only.

Sample 1
Target: TATA-box-binding protein 1 (TBP1, Arabidopsis thaliana, UniProt P28147, residues 1-200, full length assumed)
Method: protein-binding microarray
Molecule type: double-stranded DNA, one strand shown
Sample: in vitro
Concentration: not given
Setting: k-mer, scored over probes, only values ≥0.25
Direction: higher = stronger binding
Measurement: E-score
Target sequence (chain): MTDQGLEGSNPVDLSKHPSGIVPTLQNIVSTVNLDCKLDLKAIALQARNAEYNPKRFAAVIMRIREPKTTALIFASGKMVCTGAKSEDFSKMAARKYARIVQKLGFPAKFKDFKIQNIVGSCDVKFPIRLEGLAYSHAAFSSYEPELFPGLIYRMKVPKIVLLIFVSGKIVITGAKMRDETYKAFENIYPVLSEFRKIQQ
Strand = ACAAATA; value = 0.277
Strand = TAAATAA; value = 0.456
Strand = TACTTAA; value = 0.391
Strand = CCGTATA; value = 0.276
Strand = ACTATAT; value = 0.425
Strand = AACTTAA; value = 0.318
Strand = AATATTA; value = 0.448
Strand = GGATAAA; value = 0.291
Strand = ATCTATA; value = 0.338
Strand = CCTTTAA; value = 0.336

Sample 2
Target: Ras GTPase-activating protein-binding protein 1, C-terminal RGG region (G3BP1, Homo sapiens, UniProt Q13283)
Chain of UniProt Q13283 (whole entry, looked up): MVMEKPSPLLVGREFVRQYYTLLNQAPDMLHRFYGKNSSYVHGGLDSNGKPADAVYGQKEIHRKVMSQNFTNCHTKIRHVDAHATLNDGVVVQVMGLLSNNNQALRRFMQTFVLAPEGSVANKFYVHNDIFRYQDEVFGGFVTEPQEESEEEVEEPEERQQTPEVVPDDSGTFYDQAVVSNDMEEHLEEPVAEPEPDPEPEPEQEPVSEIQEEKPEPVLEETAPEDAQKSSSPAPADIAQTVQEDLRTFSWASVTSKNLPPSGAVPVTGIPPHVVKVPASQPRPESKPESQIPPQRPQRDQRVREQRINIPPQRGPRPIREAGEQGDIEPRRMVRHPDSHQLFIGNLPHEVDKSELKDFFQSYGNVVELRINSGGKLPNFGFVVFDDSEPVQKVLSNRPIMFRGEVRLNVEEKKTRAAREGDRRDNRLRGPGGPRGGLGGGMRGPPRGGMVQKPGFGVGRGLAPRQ
Method: RNA Bind-n-Seq
Molecule type: RNA
Sample: in vitro
Concentration: 1 µM
Setting: whole 134-nt RNA, ends assumed
Added: 150 mM KCl
Relative to: input library
Direction: higher = stronger binding
Measurement: log2 enrichment
Shared flanks, not repeated: GGGAGUUCUACAGUCCGACGAUC … UGGAAUUCUCGGGUGUCAAGG
Strand = AAGUCCUGUGCUACACAUCGUAUGUACCGAAUCGGGGUUUGGGGUUUGGGGUUUGGAAAGUAUUAUGUUACGCCGUUCGGAUCUGCACUU; value = -0.64
Strand = GCAGGAAGUAAAAACAAAUGGAAAUGCUCCGGAUAGUGGCAGGGGUGGGGGUUGCUAAGGAAAGGGUGGGAUGGGAGUGGGUAAAGAGUU; value = 2.04
Strand = CUGUGCUACACAUCGUAUGUACCGAAUCGGGCCCCCCCGGGGCCCCCCCGGGCCCCCCCGGAAAGUAUUAUGUUACGCCGUUCGGAUCUG; value = -1.61
Strand = CUGUGCUACACAUCGUAUGUACCGAAUCGGGGAAAGGGGAAAAAAAGGGGUUUUUUUGGGGAAAGUAUUAUGUUACGCCGUUCGGAUCUG; value = 0.112
Strand = CACAGACAACACGCACCCACACAGACACAGAGGGAAGGGGUUGGGAUGGGGACAGGGUGCACAGCAGGGCGGGAUAGGACCCCAGCCCCU; value = -1.3
Strand = AAGUCCUGUGCUACACAUCGUAUGUACCGAAUCGGGAAAAAAAGGGUUUGGGUGGGAAAGUAUUAUGUUACGCCGUUCGGAUCUGCACUU; value = 1.29
Strand = UCAAGUCCUGUGCUACACAUCGUAUGUACCGAAUCGGGGCCGGGCCGGGGCCGGAAAGUAUUAUGUUACGCCGUUCGGAUCUGCACUUCC; value = -1.97
Strand = CCUGUGCUACACAUCGUAUGUACCGAAUCGGGGUUUGGGGUUUUUGGGGUUUUUUUGGGGAAAGUAUUAUGUUACGCCGUUCGGAUCUGC; value = 0.943

Sample 3
Target: RNA binding protein fox-1 homolog 2, RRM domain, GST-SBP tag (RBFOX2, Homo sapiens, UniProt O43251-10, residues 100-194)
Method: RNA Bind-n-Seq
Molecule type: RNA
Sample: in vitro
Concentration: 365 nM
Setting: natural RNA segment, single round, ends assumed
Relative to: no-protein control
Direction: higher = stronger binding
Measurement: RBNS enrichment (R)
Shared flanks, not repeated: GGGAGUUCUACAGUCCGACGAUC … UGGAAUUCUCGGGUGCCAA
Residues (chain): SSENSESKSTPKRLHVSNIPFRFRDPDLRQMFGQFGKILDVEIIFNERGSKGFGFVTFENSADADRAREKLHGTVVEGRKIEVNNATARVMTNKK
Strand = UCCUCUUCUGGAAUGUUGCUGACCCAGGCCGUGGACUUGGCUGAGCACUGUUAGACACACACAGACCUGCAGGCUGUUUUAGAAUGUUUUGAUCUCUUUGGGGAAUCUGG; value = 1.57
Strand = GGGGUUUUCUAGAUAUACAAUCAUGUCGUCUGCAAACGGACAAUUUGACUUCCUCUUUUCCUAAUUGAAUACCCUUUAUUUCCUUCUCCUGCCUAAUUGCCCUGGCCAGA; value = 0.649
Strand = GCCCUUAGCCUUGUGUCAUCUGCUUUUUCGUUCUGCGAUAUGCCCAGUUCCCAAAUCAAUUAUAGGUACCUGUUUAGGAGAGAGGAAGAUUUUACCUCUCAAAGGGUGAG; value = 0.334
Strand = GCAAUAACUUAGUAGUACUUGCUUAGUUAUAAAUAACUGGAUCUUUCUGCUGACAACUUAGGUUGUAUGAGUUAUGCUUAAAAGCUUUAAAUCGGAUGUUUCCUGUACCU; value = 0.237
Strand = CUGACAUUUUUUUCAGUUAUGUGAAUGAAUGGAAACCAACAGCUGCUGCAAACACUGUUUUUCCAAGAAGGCUACACUCAGAACCUAACCAUUGCCAACCAUUUCAGUAU; value = 0.51
Strand = CACCACCCUGUGCCCCAGAUGAUGGAUUGAUUGUACAGAAAUCAUGCUGCCAUGCUGGGGGGGGGUCACCCCGACCCCUCAGGCCCACCUGUCACGGGGAACAUGGAGCC; value = 0.221
Strand = CCACCGAACAGCACAGCUAGUGCCUACUGAGUUCAGAGAGUGCAAGGGGACGAAGGUGGGGAUCCUGAAAUGUUCUUCAACUGGGGAAGACAGAGCUCACCUUCAGGCAG; value = 1.16
Strand = AUUAACAAAAUGUAAUUUCAGAUUAUUCGUUUAUAGGCUUUAUAAUUUUAUGGUUUUUUUUUAAAAUCGUGUUUUGUCACAGAUGCCCCUAGUGUUUGUGCUAACCUAGU; value = 0.599
Strand = UCUAAUUAAUAAUUCAAUUUUGAAAAUUCUCAAAAAAAUUUGAGGAUUUAAGCCUAGGGAUUUUAUUUUUAUAAAUACCAAAUCAUCAUUAGACUAAUCACUGGUGGAAA; value = 0.668
Strand = CUACUGCAGAAGUGCAGGGCACCAGUAAACACCAUGUAUUAUUGAAGAUGAAUCUGUUUGUAUGUAUCCUUGUCAAAUAUAUUCUAUAAUGAAAUAAAAUCUGAAAAGUG; value = 0.443
Strand = GAGGUGUACCUAAGAAAUUAGCAAGAAUGGAUCUGCGUCUCAGCUCAGCAGAACUAUAGCCAAUGUUUUGUUUUGUUUUCCUGAAUGCUAUCUUAUUUUUUUUCUUAUAG; value = 1.55
Strand = GCAUUUGCAUAGCAGGGAUUGUGCCUGUAUCUACUGUGUCCAUUUUGUUUUUUCGGAUGUUUUCUGGUUUUGUUUCCUUGGAAAUAAAUUAAUAUAUUGUUUUCCACCUU; value = 29.4

Sample 4
Target: Histone acetyltransferase KAT6A, winged helix 2, GST fusion (KAT6A, Homo sapiens, UniProt Q92794, residues 85-181)
Method: protein binding microarray
Molecule type: double-stranded DNA, one strand shown
Sample: in vitro
Concentration: not given
Setting: 8-mer, flanks averaged, mean of 2 arrays, mostly near background
Relative to: not given
Direction: higher = stronger binding
Measurement: E-score
Construct (chain): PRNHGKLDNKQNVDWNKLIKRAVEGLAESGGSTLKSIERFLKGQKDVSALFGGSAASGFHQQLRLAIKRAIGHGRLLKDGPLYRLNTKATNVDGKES
Strand = TATAACCA; value = -0.199
Strand = ATAGCAGC; value = 0.0359
Strand = CTGATATA; value = 0.0588
Strand = ACGATGAC; value = 0.0104
Strand = GACCTACC; value = 0.00093
Strand = ACCGGCAT; value = 0.0321
Strand = GCCACCAC; value = -0.0174
Strand = CACAGTCG; value = -0.0772
Strand = ATGGGAGA; value = -0.224
Strand = AACGCTGA; value = -0.0505
Strand = TAGAGCAA; value = 0.0892
Strand = GGATTCAC; value = 0.0434
Strand = TTGACCAA; value = -0.0372
Strand = AGACCTAA; value = -0.18
Strand = CCCTTGCC; value = 0.0264
Strand = AACTGGAA; value = -0.0841
Strand = GACTCCGC; value = -0.0163
Strand = TTGAGCAA; value = 0.186
Strand = GCGTTCAA; value = 0.0709
Strand = ATGGAACA; value = -0.0276
Strand = AATGACCA; value = -0.0565
Strand = CGCGGCGC; value = 0.15
Strand = AGCCCTTG; value = -0.0863

Sample 5
Target: Interferon regulatory factor 7, full length, phosphomimetic (IRF7, Homo sapiens, UniProt Q92985, residues 1-503, S101K/S471D/S472D/S475D/S476D/S477D/S483D/S484D/S487D)
Method: protein-binding microarray
Molecule type: double-stranded DNA, one strand shown
Sample: in vitro
Concentration: 250 nM
Setting: 60-bp whole probe
Added: salmon DNA 0.4 mg/ml
Relative to: random background probes
Direction: higher = stronger binding
Measurement: log fluorescence
Shared flanks, not repeated: GCCTAGCAC … GTCTTGATTCGCTTGACGCTGCTG
Residues (chain): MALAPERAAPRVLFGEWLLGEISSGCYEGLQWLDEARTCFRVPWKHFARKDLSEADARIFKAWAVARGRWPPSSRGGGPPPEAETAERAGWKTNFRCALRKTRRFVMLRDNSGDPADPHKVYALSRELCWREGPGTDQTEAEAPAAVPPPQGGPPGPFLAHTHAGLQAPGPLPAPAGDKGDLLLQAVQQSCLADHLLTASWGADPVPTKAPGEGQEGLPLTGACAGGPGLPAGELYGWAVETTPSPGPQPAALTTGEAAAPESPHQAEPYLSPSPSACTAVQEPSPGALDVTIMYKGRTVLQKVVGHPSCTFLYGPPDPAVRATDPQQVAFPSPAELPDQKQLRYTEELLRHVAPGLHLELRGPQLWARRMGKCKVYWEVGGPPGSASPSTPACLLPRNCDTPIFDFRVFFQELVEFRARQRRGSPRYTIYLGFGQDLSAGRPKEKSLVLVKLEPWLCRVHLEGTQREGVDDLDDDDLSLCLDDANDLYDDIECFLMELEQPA
Strand = TTAGGACTGATTCTCCTTTAGTGCTAG; value = 0.81 z-score
Strand = GACGATTTCGGATATCGAGACGTGCTA; value = 1.03 z-score
Strand = TTAGGTTTCGACTATCCGTTAGTGCTA; value = 5.53 z-score
Strand = GACGGAATGGGTCTCGGGACGTGCTAG; value = -0.158 z-score
Strand = GACGAACAGAGTCTCGAGACGTGCTAG; value = 0.45 z-score
Strand = GACGGCCTCCTACTGCTGACGTGCTAG; value = -0.768 z-score
Strand = TTAGGTATCCTTCTCCTTTTGTGCTAG; value = 0.831 z-score
Strand = TCAGTTTTCGCTTTCTTACTGTGCTAG; value = 7.94 z-score
Strand = TTTTCACTTTCTTTAACATAGTGCTAG; value = 3.47 z-score
Strand = GACGGTATCCTACTGCAGACGTGCTAG; value = 0.0502 z-score
Strand = GTCGGTATCGGGTATCGGGACGTGCTA; value = 0.99 z-score
Strand = GACGGTTTCGGTTCCGGTACGTGCTAG; value = 12.6 z-score
Strand = AAGAGTTTCCCTCCCTGAGTGTGCTAG; value = 0.895 z-score
Strand = GACGGTTTCGGACTGTGGACGTGCTAG; value = 5.14 z-score
Strand = TACGGTTTCGGGACTGGGGACGTGCTA; value = 3.72 z-score
Strand = GACGGTATCCTTTCCCTGACGTGCTAG; value = 0.554 z-score
Strand = TCACTTCTCAATTAAAAACTGTGCTAG; value = 1.52 z-score
Strand = TTAGGGCTCCTTATCCTTTAGTGCTAG; value = 0.229 z-score
Strand = GACGGTTTTCTTATCCTGACGTGCTAG; value = 1.43 z-score
Strand = GACGGTAACGGGTTTCGGGACGTGCTA; value = 2.03 z-score
Strand = TTAGGTATCGGGACGGGGTTAGTGCTA; value = 0.343 z-score
Strand = GACGGTTTCGGGTTTCGTGACGTGCTA; value = 10.8 z-score
